{"data": "Experimental data from different studies", "organism": "Enterococcus faecalis", "note": "Compare with care: the assays were run in different laboratories."}
{"Compound": "CC[C@H](C)[C@H](N)C(=O)N[C@@H](CCCNC(=N)N)C(=O)N[C@H](C(=O)N[C@@H](Cc1c[nH]c2ccccc12)C(=O)N[C@@H](Cc1ccccc1)C(=O)N[C@H](C(=O)N[C@@H](CCCCN)C(=O)N[C@H](C(=O)N[C@@H](CCCNC(=N)N)C(=O)N[C@@H](CCCCN)C(=O)N[C@@H](CCSC)C(=O)N[C@@H](CCCCN)C(=O)N[C@@H](C)C(=O)N[C@H](C(=O)N[C@@H](Cc1ccc(O)cc1)C(=O)N[C@@H](Cc1c[nH]cn1)C(=O)N[C@H](C(N)=O)[C@@H](C)O)[C@@H](C)CC)C(C)C)[C@@H](C)CC)C(C)C", "technique": "broth dilution", "strain": "KCTC 3511", "MIC": "100 µM"}
{"Compound": "CC[C@H](C)[C@@H]1NC(=O)[C@H](C(C)C)NC(=O)[C@H](C(C)C)NC(=O)[C@H](CC(C)C)NC(=O)C[C@@H](C(=O)N[C@@H](Cc2c[nH]c3ccccc23)C(=O)N[C@@H](CC(N)=O)C(=O)N[C@@H](C)C(=O)N2CCC[C@H]2C(=O)NCC(=O)N[C@@H](Cc2c[nH]c3ccccc23)C(=O)N[C@@H](Cc2ccccc2)C(=O)O)NC(=O)[C@H](C)NC(=O)[C@H](CCC(N)=O)NC(=O)[C@H](C(C)C)NC1=O", "strain": "vancomycin-resistant 1010798", "MIC": "> 32 µg/mL"}
{"Compound": "CC[C@H](C)[C@H](NC(=O)[C@H](CC(C)C)NC(=O)[C@H](CCCNC(=N)N)NC(=O)CNC(=O)CNC(=O)[C@H](CCCCN)NC(=O)[C@H](CCCNC(=N)N)NC(=O)[C@H](CC(C)C)NC(=O)[C@H](CC(C)C)NC(=O)[C@H](CCCNC(=N)N)NC(=O)[C@@H](NC(=O)[C@H](CC(C)C)NC(=O)[C@@H](N)CO)[C@@H](C)O)C(=O)NCC(=O)N[C@@H](Cc1c[nH]c2ccccc12)C(=O)N[C@@H](CCCNC(=N)N)C(=O)N[C@@H](Cc1c[nH]c2ccccc12)C(=O)N[C@@H](CCC(=O)O)C(=O)N[C@@H](CCCCN)C(=O)N[C@H](C(=O)N[C@@H](CCCNC(=N)N)C(=O)N[C@@H](CC(N)=O)C(=O)N[C@@H](Cc1c[nH]c2ccccc12)C(=O)N[C@H](C(=O)N[C@@H](CCCNC(=N)N)C(=O)N[C@@H](CCCNC(=N)N)C(=O)N[C@H](C(=O)N[C@H](C(=O)N[C@@H](CCC(=O)O)C(=O)N[C@@H](CCCCN)C(=O)N[C@@H](CCCNC(=N)N)C(=O)N[C@@H](CCCCN)C(=O)N1CCC[C@H]1C(=O)N[C@@H](CC(N)=O)C(=O)N[C@@H](CCCCN)C(=O)O)[C@@H](C)CC)[C@@H](C)CC)[C@@H](C)CC)[C@@H](C)O", "strain": "ATCC 29212", "MIC": "8.79 µg/mL"}
{"Compound": "CC[C@H](C)[C@H](N)C(=O)N[C@@H](CCCNC(=N)N)C(=O)N[C@H](C(=O)N[C@@H](Cc1c[nH]c2ccccc12)C(=O)N[C@@H](Cc1ccccc1)C(=O)N[C@H](C(=O)N[C@@H](CCCCN)C(=O)N[C@H](C(=O)N[C@@H](CCCNC(=N)N)C(=O)N[C@@H](CCCCN)C(=O)N[C@@H](CCSC)C(=O)N[C@@H](CCCCN)C(=O)N[C@@H](C)C(=O)N[C@H](C(=O)N[C@@H](Cc1ccc(O)cc1)C(=O)N[C@@H](Cc1c[nH]cn1)C(N)=O)[C@@H](C)CC)C(C)C)[C@@H](C)CC)C(C)C", "technique": "broth dilution", "strain": "KCTC 3511", "MIC": "12.5 µM"}
{"Compound": "CN[C@H](CC(C)C)C(=O)N[C@H]1C(=O)N[C@@H](CC(N)=O)C(=O)N[C@H]2C(=O)N[C@H]3C(=O)N[C@H](C(=O)N[C@H](C(=O)O)c4cc(O)cc(O)c4-c4cc3ccc4O)[C@H](O)c3ccc(c(Cl)c3)Oc3cc2cc(c3O[C@@H]2O[C@H](CO)[C@@H](O)[C@H](O)[C@H]2O[C@H]2C[C@](C)(NCc3ccc(OCc4cn(CCCCC(=O)N[C@H](C(=O)N[C@@H](CCN)C(=O)N[C@H]5CCNC(=O)[C@H]([C@@H](C)O)NC(=O)[C@H](CCN)NC(=O)[C@H](CCN)NC(=O)[C@H](CC(C)C)NC(=O)[C@@H](CC(C)C)NC(=O)[C@H](CCN)NC5=O)[C@@H](C)O)nn4)c(OC)c3)[C@H](O)[C@H](C)O2)Oc2ccc(cc2Cl)[C@H]1O", "technique": "broth microdilution", "strain": "vancomycin-resistant", "MIC": "48 µM"}
{"Compound": "CN[C@@H]1[C@H](O)[C@H](NC)[C@H]2O[C@]3(O)[C@H](O[C@@H]2[C@H]1O)O[C@H](C)C[C@H]3NC(=O)Cc1ccc(Cl)cn1", "read-out": "microbial growth", "technique": "broth dilution", "strain": "ATCC33186", "MIC": "25 µg/mL"}
{"Compound": "C#CCNC(=O)[C@H]1NC(=O)[C@H]2NC(=O)[C@H](NC(=O)[C@@H]3NC(=O)[C@H](CC(N)=O)NC(=O)[C@H](NC(=O)[C@@H](CC(C)C)NC)[C@H](O)c4ccc(c(Cl)c4)Oc4cc3cc(c4O[C@@H]3O[C@H](CO)[C@@H](O)[C@H](O)[C@H]3O[C@H]3C[C@](C)(N)[C@H](O)[C@H](C)O3)Oc3ccc(cc3Cl)[C@H]2O)c2ccc(O)c(c2)-c2c(O)cc(O)cc21", "technique": "broth microdilution", "strain": "vancomycin-resistant", "MIC": "11 µM"}
{"Compound": "CN[C@H](CC(C)C)C(=O)N[C@H]1C(=O)N[C@@H](CC(N)=O)C(=O)N[C@H]2C(=O)N[C@H]3C(=O)N[C@H](C(=O)N[C@H](C(=O)O)c4cc(O)cc(O)c4-c4cc3ccc4O)[C@H](O)c3ccc(c(Cl)c3)Oc3cc2cc(c3O[C@@H]2O[C@H](CO)[C@@H](O)[C@H](O)[C@H]2O[C@H]2C[C@](C)(N)[C@H](O)[C@H](C)O2)Oc2ccc(cc2Cl)[C@H]1O", "strain": "clinical isolate", "time": "18 to 20 h", "temperature": "37 °C", "MIC": "< 1 µM"}
{"Compound": "CN[C@H](CC(C)C)C(=O)N[C@H]1C(=O)N[C@@H](CC(N)=O)C(=O)N[C@H]2C(=O)N[C@H]3C(=O)N[C@H](C(=O)N[C@H](C(=O)N[C@@H](CCCNC(=N)N)C(N)=O)c4cc(O)cc(O)c4-c4cc3ccc4O)[C@H](O)c3ccc(c(Cl)c3)Oc3cc2cc(c3O[C@@H]2O[C@H](CO)[C@@H](O)[C@H](O)[C@H]2O[C@H]2C[C@](C)(NCc3ccc(OCc4cn(CC(=O)N[C@H](C(=O)N[C@@H](CCN)C(=O)N[C@H]5CCNC(=O)[C@H]([C@@H](C)O)NC(=O)[C@H](CCN)NC(=O)[C@H](CCN)NC(=O)[C@H](CC(C)C)NC(=O)[C@@H](CC(C)C)NC(=O)[C@H](CCN)NC5=O)[C@@H](C)O)nn4)c(OC)c3)[C@H](O)[C@H](C)O2)Oc2ccc(cc2Cl)[C@H]1O", "technique": "broth microdilution", "strain": "vancomycin-resistant", "MIC": "46 µM"}
{"Compound": "CN[C@@H]1[C@H](O)[C@H](NC)[C@H]2O[C@]3(O)[C@H](O[C@@H]2[C@H]1O)O[C@H](C)C[C@H]3NC(=O)Cc1cscn1", "read-out": "microbial growth", "technique": "broth dilution", "strain": "ATCC33186", "MIC": "50 µg/mL"}
{"Compound": "CC[C@H](C)[C@H](NC(=O)[C@@H]1CCCN1C(=O)CNC(=O)[C@H](CC(C)C)NC(=O)[C@H](CCCCN)NC(=O)[C@H](CCCNC(=N)N)NC(=O)[C@H](Cc1c[nH]c2ccccc12)NC(=O)[C@H](C)NC(=O)[C@H](CC(N)=O)NC(=O)[C@H](CCCCN)NC(=O)[C@H](CC(C)C)NC(=O)[C@H](CCCCN)NC(=O)[C@H](CC(N)=O)NC(=O)[C@H](CCCNC(=N)N)NC(=O)[C@H](C)NC(=O)[C@H](CCCNC(=N)N)NC(=O)[C@H](CCCNC(=N)N)NC(=O)[C@H](Cc1ccccc1)NC(=O)[C@H](Cc1c[nH]c2ccccc12)NC(=O)CN)C(=O)N[C@H](C(=O)NCC(=O)N1CCC[C@H]1C(=O)N[C@@H](CC(C)C)C(=O)N[C@@H](CC(C)C)C(=O)N[C@H](C(=O)N[C@@H](CCCNC(=N)N)C(=O)O)[C@@H](C)O)C(C)C", "strain": "ATCC 29212", "MIC": "4.39 µg/mL"}
{"Compound": "Cc1ccc2[nH]c3c(c2c1)CCCC3NCCc1ccc(O)cc1 (stereo not shown)", "technique": "broth microdilution", "strain": "JH2-2", "MIC": "16 µg/mL"}
{"Compound": "N=C(N)NCCC[C@H](NC(=O)[C@H](CCCNC(=N)N)NC(=O)[C@H](CCCNC(=N)N)NC(=O)[C@H](CCC(N)=O)NC(=O)[C@H](CCCNC(=N)N)NC(=O)[C@H](CCCNC(=N)N)NC(=O)[C@H](CCCCN)NC(=O)[C@H](CCCCN)NC(=O)[C@H](CCCNC(=N)N)NC(=O)CNC(=O)[C@@H](N)Cc1ccc(O)cc1)C(=O)O", "technique": "broth microdilution", "strain": "drug-resistant clinical isolates", "sample": "Mueller-Hinton broth", "time": "18 to 20 h", "temperature": "37 °C", "MIC": "> 128 µM"}
{"note": "Some of these lines once more:"}
{"Compound": "CC[C@H](C)[C@@H]1NC(=O)[C@H](C(C)C)NC(=O)[C@H](C(C)C)NC(=O)[C@H](CC(C)C)NC(=O)C[C@@H](C(=O)N[C@@H](Cc2c[nH]c3ccccc23)C(=O)N[C@@H](CC(N)=O)C(=O)N[C@@H](C)C(=O)N2CCC[C@H]2C(=O)NCC(=O)N[C@@H](Cc2c[nH]c3ccccc23)C(=O)N[C@@H](Cc2ccccc2)C(=O)O)NC(=O)[C@H](C)NC(=O)[C@H](CCC(N)=O)NC(=O)[C@H](C(C)C)NC1=O", "strain": "vancomycin-resistant 1010798", "MIC": "> 32 µg/mL"}
{"Compound": "CC[C@H](C)[C@H](NC(=O)[C@H](CC(C)C)NC(=O)[C@H](CCCNC(=N)N)NC(=O)CNC(=O)CNC(=O)[C@H](CCCCN)NC(=O)[C@H](CCCNC(=N)N)NC(=O)[C@H](CC(C)C)NC(=O)[C@H](CC(C)C)NC(=O)[C@H](CCCNC(=N)N)NC(=O)[C@@H](NC(=O)[C@H](CC(C)C)NC(=O)[C@@H](N)CO)[C@@H](C)O)C(=O)NCC(=O)N[C@@H](Cc1c[nH]c2ccccc12)C(=O)N[C@@H](CCCNC(=N)N)C(=O)N[C@@H](Cc1c[nH]c2ccccc12)C(=O)N[C@@H](CCC(=O)O)C(=O)N[C@@H](CCCCN)C(=O)N[C@H](C(=O)N[C@@H](CCCNC(=N)N)C(=O)N[C@@H](CC(N)=O)C(=O)N[C@@H](Cc1c[nH]c2ccccc12)C(=O)N[C@H](C(=O)N[C@@H](CCCNC(=N)N)C(=O)N[C@@H](CCCNC(=N)N)C(=O)N[C@H](C(=O)N[C@H](C(=O)N[C@@H](CCC(=O)O)C(=O)N[C@@H](CCCCN)C(=O)N[C@@H](CCCNC(=N)N)C(=O)N[C@@H](CCCCN)C(=O)N1CCC[C@H]1C(=O)N[C@@H](CC(N)=O)C(=O)N[C@@H](CCCCN)C(=O)O)[C@@H](C)CC)[C@@H](C)CC)[C@@H](C)CC)[C@@H](C)O", "strain": "ATCC 29212", "MIC": "8.79 µg/mL"}
